Results collected from several papers.
Each line is one published result; not all experiments were run side by side.
Target: Tau-tubulin kinase 1 (TTBK1, Homo sapiens, UniProt Q5TCY1)
Sequence of UniProt Q5TCY1 (whole entry, looked up): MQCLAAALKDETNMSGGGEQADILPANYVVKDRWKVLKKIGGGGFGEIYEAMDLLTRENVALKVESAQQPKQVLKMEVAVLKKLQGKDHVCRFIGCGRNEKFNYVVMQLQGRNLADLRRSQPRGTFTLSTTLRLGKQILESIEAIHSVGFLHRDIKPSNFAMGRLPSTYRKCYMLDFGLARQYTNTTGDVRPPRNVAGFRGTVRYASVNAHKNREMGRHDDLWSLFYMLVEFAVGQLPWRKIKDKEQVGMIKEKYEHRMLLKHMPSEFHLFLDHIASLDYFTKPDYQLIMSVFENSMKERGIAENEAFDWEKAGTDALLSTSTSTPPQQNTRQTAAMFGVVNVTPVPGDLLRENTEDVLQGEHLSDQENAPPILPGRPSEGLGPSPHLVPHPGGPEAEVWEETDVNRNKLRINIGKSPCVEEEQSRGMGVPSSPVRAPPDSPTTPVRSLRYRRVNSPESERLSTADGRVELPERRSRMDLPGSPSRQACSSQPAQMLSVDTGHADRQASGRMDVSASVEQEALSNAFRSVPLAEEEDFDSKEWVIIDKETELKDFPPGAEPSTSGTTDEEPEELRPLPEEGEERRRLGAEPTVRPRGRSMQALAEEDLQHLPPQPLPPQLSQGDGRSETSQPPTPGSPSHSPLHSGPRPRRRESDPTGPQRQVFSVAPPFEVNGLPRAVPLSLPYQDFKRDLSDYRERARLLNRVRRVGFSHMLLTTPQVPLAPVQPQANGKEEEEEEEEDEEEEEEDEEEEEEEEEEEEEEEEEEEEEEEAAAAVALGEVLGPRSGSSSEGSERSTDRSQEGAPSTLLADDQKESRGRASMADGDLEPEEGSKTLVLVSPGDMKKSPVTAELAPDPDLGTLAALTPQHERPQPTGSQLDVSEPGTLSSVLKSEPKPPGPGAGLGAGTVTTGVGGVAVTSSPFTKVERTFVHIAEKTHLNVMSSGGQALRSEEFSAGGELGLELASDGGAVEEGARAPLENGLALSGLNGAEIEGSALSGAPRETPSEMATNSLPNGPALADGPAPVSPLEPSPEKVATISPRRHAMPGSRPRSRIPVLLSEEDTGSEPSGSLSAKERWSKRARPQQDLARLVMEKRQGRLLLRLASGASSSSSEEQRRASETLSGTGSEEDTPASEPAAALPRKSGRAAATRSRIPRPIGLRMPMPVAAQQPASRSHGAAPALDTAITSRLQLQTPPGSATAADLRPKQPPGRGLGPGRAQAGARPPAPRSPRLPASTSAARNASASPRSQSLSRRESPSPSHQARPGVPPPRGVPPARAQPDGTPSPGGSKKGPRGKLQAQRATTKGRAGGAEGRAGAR

SMILES | effect on | mode | concentration | with | relative to | quantity | value
O=C(Cc1ccc(OCc2ccccc2)cc1)NC1(C(=O)O)CCN(C(=O)c2ccc(-c3cccc(Cl)c3)cc2)CC1 | enzyme activity | inhibitor | 10 µM | – | – | activity vs control | 102%
CN1CC[C@@H](COc2cnc(C#N)cc2-c2ccn3nc(NC(=O)C4CC4)cc3c2)C1 | enzyme activity | inhibitor | 1 µM | – | – | inhibition | -9%
NC(=O)[C@@H](O)C[C@H]1CCc2sc3ncnc(O[C@H]4CC[C@H](N5CCOCC5)CC4)c3c21 | enzyme activity | inhibitor | 10 µM | – | – | inhibition | -6%
Nc1ncc(-c2cc(-c3cnn(CC(F)(F)F)c3)ncc2F)nc1C(=O)NC1CNCC(F)C1 (centres unmarked) | enzyme activity | – | 1 µM | – | DMSO control | remaining activity | 107%
Cc1nc2c(F)cc(-c3nc(Nc4ccc(CNC(=O)CCCCCCC(=O)NO)cc4)ncc3F)cc2n1C(C)C | enzyme activity | inhibitor | 1 µM | – | – | inhibition | 8%
CCn1cc(C(=O)O)c(=O)c2c(N)c(F)c(NC3CCCCC3)cc21 | kinase activity | – | 0.1 µM | ATP at Km | – | inhibition | 4.7%
CNC(=O)C[C@H](Cc1ccc(C#N)cc1)NC(=O)c1cc(-c2ccc(CN[C@H](C)c3ccc(C)cc3)o2)ccc1Cl | enzyme activity | inhibitor | 1 µM | – | – | activity vs control | 105%
NC(=O)C[C@H]1CCc2sc3ncnc(O[C@H]4CC[C@H](N5CCOCC5)CC4)c3c21 | enzyme activity | inhibitor | 10 µM | – | – | inhibition | -2%

A few entries again:
SMILES | effect on | mode | concentration | with | relative to | quantity | value
CN1CC[C@@H](COc2cnc(C#N)cc2-c2ccn3nc(NC(=O)C4CC4)cc3c2)C1 | enzyme activity | inhibitor | 1 µM | – | – | inhibition | -9%
